Measured values from different studies.
Compare with care: the assays were run in different laboratories. ± gives the spread as reported. Converted amounts (≈) assume the structure as drawn.
Organism: Escherichia coli

| SMILES | test | system | conditions | how to read | endpoint | value |
| --- | --- | --- | --- | --- | --- | --- |
| COc1cc2ccc3oc([N+](=O)[O-])cc3c2cc1OC | REMA |  |  |  | MIC90 | > 32 µg/mL |
| CC[C@H](C)[C@H](NC(=O)[C@H](CCCNC(=N)N)NC(=O)[C@H](CCCNC(=N)N)NC(=O)[C@H](CCCNC(=N)N)NC(=O)[C@H](CCCNC(=N)N)NC(=O)[C@H](CC(C)C)NC(=O)[C@H](CCCNC(=N)N)NC(=O)[C@H](CO)NC(=O)[C@@H](N)CO)C(=O)N[C@H](C(=O)N[C@@H](CC(C)C)C(=O)N[C@@H](CCCNC(=N)N)C(=O)N[C@@H](CCCNC(=N)N)C(=O)N[C@@H](CCCNC(=N)N)C(=O)N[C@@H](CCCNC(=N)N)C(=O)N[C@@H](Cc1ccccc1)C(=O)N[C@@H](CO)C(=O)N[C@@H](C)C(=O)N[C@@H](Cc1ccc(O)cc1)C(N)=O)C(C)C | checkerboard |  | unit not given, with: azithromycin | lower means synergy | FICI | 0.19 |
| Cn1c(=O)ccc2ccc(F)c(CCNC[C@H]3CN(c4cnc5c(n4)NC(=O)CO5)C(=O)O3)c21 |  |  |  |  | MIC90 | 0.5 µg/mL (≈ 1.07 µM) |
| C[C@@H](O)[C@H]1C(=O)N2C(C(=O)O)=C(SCCN=CN)C[C@H]12 |  | DH5a clone with KPC-137 |  | relative to: empty vector strain | MIC fold increase | 8 fold |
| O=C(O)c1cn(C2CC2)c2cc(N3CCNCC3)c(F)cc2c1=O |  | ATCC 25922 |  |  | passages to resistance | 3 passages |
| CC(C)Cc1ccc(C(C)C(=O)O)cc1 (stereo not shown) |  | MG1655 RecA-GFP | 10 µM, 4 h |  | SOS response induction | 10% |
| CC[C@@H](C)[C@@H](N)C(=O)N[C@@H](C(=O)N[C@H](Cc1ccc(O)cc1)C(=O)N[C@@H](C(=O)N[C@H](CCN)C(=O)N[C@H](CC(C)C)C(=O)N[C@H](CO)C(=O)N[C@H](CCN)C(=O)N[C@@H](C(=O)N[C@H](CCN)C(=O)N[C@H](Cc1c[nH]cn1)C(=O)N[C@H](CCN)C(=O)N[C@H](C)C(=O)N[C@H](CCN)C(=O)N[C@H](CCN)C(N)=O)[C@H](C)CC)[C@H](C)CC)[C@H](C)CC |  | ATCC 25922, Mueller-Hinton broth | 20 h, 37 °C |  | MBC | 4 µg/mL |
| CC[C@H](C)[C@H](N)C(=O)N[C@@H](CO)C(=O)N[C@@H](Cc1ccccc1)C(=O)N[C@@H](CC(C)C)C(=O)NCC(=O)N[C@@H](CO)C(=O)N[C@@H](CCCCN)C(=O)N[C@H](C(=O)N[C@H](C(=O)N[C@H](C(=O)N[C@@H](CC(C)C)C(=O)N[C@@H](CC(C)C)C(=O)N[C@@H](CCCCN)C(=O)N[C@@H](CCCNC(=N)N)C(=O)N[C@@H](CCCNC(=N)N)C(=O)N[C@@H](CCCNC(=N)N)C(=O)N[C@@H](CCCNC(=N)N)C(=O)N[C@@H](CCCNC(=N)N)C(=O)N[C@@H](CCCNC(=N)N)C(=O)N[C@@H](CCCNC(=N)N)C(N)=O)C(C)C)C(C)C)C(C)C | checkerboard |  | unit not given, with: rifampicin | lower means synergy | FICI | 0.19 |
| COc1ccc(CC2NCCc3cc(OC)c(OC)cc32)cc1OC.Cl (stereo not shown) |  |  | 24 h, 37 °C |  | MIC50 | > 1600 µM |
| CC(C)[C@@H]1NC(=O)CNC(=O)[C@H](CC(N)=O)NC(=O)[C@H](CCCNC(=N)N)NC(=O)[C@H](Cc2ccc(O)cc2)NC(=O)[C@H](C(C)C)NC(=O)[C@@H](NC(=O)[C@@H](NC(=O)[C@H](CC(N)=O)NC(=O)[C@H](Cc2c[nH]c3ccccc23)NC(=O)[C@H](C)NC(=O)[C@H](Cc2ccccc2)NC(=O)CN)C(C)C)CSSC[C@@H](C(=O)N[C@@H](Cc2c[nH]cn2)C(=O)N[C@@H](CCCNC(=N)N)C(=O)N[C@@H](CCCNC(=N)N)C(=O)N[C@@H](C)C(=O)N[C@@H](CC(N)=O)C(N)=O)NC(=O)[C@H](C(C)C)NC(=O)[C@H](CCCNC(=N)N)NC1=O | bactericidal activity | ATCC 25922 | 24 h |  | EC50 | 1360 nM |
| CC(N)C(O)CCCCCCCCCCCCCCC(=O)CCCCCCCC(O)C(C)N (stereo not shown) | resazurin | ATCC 10536 | 50 µM |  | growth inhibition | 98 ± 0.31% |
| CC[C@H](C)[C@H](NC(=O)[C@H](CC(N)=O)NC(=O)[C@H](Cc1ccccc1)NC(=O)[C@H](CCCNC(=N)N)NC(=O)[C@H](CCCNC(=N)N)NC(=O)[C@@H](N)CCCCN)C(=O)N[C@@H](CCCCN)C(=O)N[C@@H](CC(C)C)C(=O)N[C@@H](Cc1c[nH]c2ccccc12)C(=O)N[C@@H](CCCCN)C(=O)N[C@H](C(=O)N[C@@H](Cc1ccccc1)C(=O)O)[C@@H](C)O |  | K12 MG1655 |  |  | MBC | 32 µg/mL |
| CC[C@H](C)[C@H](NC(=O)[C@H](CCCNC(=N)N)NC(=O)[C@H](CCCNC(=N)N)NC(=O)[C@@H](N)CCCNC(=N)N)C(=O)N[C@@H](CO)C(=O)N[C@@H](Cc1ccccc1)C(=O)N[C@@H](CC(C)C)C(=O)NCC(=O)N[C@@H](CO)C(=O)N[C@@H](CCCCN)C(=O)N[C@H](C(=O)N[C@H](C(=O)N[C@H](C(=O)N[C@@H](CCCNC(=N)N)C(=O)N[C@@H](CCCNC(=N)N)C(=O)N[C@@H](CCCCN)C(=O)N[C@@H](CCCNC(=N)N)C(N)=O)C(C)C)C(C)C)C(C)C | checkerboard |  | unit not given, with: rifampicin | lower means synergy | FICI | 0.16 |
| C[C@H]1[C@H](NC(=O)/C(=N\OC(C)(C)C(=O)O)c2csc(N)n2)C(=O)N1S(=O)(=O)O |  | mcr-1 producing, ICR mice systemic infection | up to 100 mg/kg |  | survival rate | 100% |
| CC[C@H](C)[C@H](NC(=O)[C@H](Cc1c[nH]c2ccccc12)NC(=O)[C@@H](N)CCCCN)C(=O)N[C@H]1CSSC[C@@H](C(=O)N[C@@H](CCCNC(=N)N)C(=O)N[C@@H](Cc2c[nH]c3ccccc23)C(=O)N[C@@H](CCCNC(=N)N)C(=O)O)NC(=O)[C@H](Cc2ccc(O)cc2)NC(=O)[C@H]([C@@H](C)O)NC(=O)[C@H]([C@@H](C)CC)NC(=O)[C@H](Cc2c[nH]c3ccccc23)NC(=O)[C@H](CCCNC(=N)N)NC(=O)CNC(=O)[C@H](CCCNC(=N)N)NC(=O)[C@H](Cc2ccc(O)cc2)NC(=O)[C@H](Cc2c[nH]c3ccccc23)NC(=O)[C@H](CC(C)C)NC(=O)[C@H](CCCNC(=N)N)NC(=O)[C@H](CCCNC(=N)N)NC1=O | bacterial growth | DH5α | 50% growth inhibition |  | IC50 | 8600 nM |
| CC[C@H](C)[C@H](NC(=O)[C@H](CC(C)C)NC(=O)[C@@H](NC(=O)[C@H](CCCNC(=N)N)NC(=O)[C@H](CCCNC(=N)N)NC(=O)[C@H](CCCNC(=N)N)NC(=O)[C@@H](N)CCCNC(=N)N)[C@@H](C)CC)C(=O)N[C@@H](CCCCN)C(=O)N[C@@H](CCCCN)C(=O)N[C@H](C(=O)N[C@@H](CC(C)C)C(=O)N[C@@H](CCCCN)C(=O)N[C@@H](CC(C)C)C(=O)N[C@@H](CCCCN)C(=O)N[C@@H](CO)C(=O)N[C@@H](CO)C(=O)N[C@@H](C)C(=O)N[C@@H](Cc1ccc(O)cc1)C(N)=O)C(C)C | checkerboard |  | unit not given, with: azithromycin | lower means synergy | FICI | 0.25 |
| CC(C)C[C@H](NC(=O)[C@H](CCCCN)NC(=O)OCC1c2ccccc2-c2ccccc21)C(=O)N[C@H](C(=O)N[C@@H](Cc1ccccc1)C(=O)N[C@@H](Cc1ccccc1)C(=O)N[C@@H](CCCCN)C(=O)NCC(=O)N[C@@H](Cc1ccccc1)C(=O)N[C@@H](C)C(=O)N[C@@H](Cc1c[nH]c2ccccc12)C(=O)N[C@@H](CC(N)=O)C(=O)N[C@H](C(=O)N[C@H]1CSSC[C@@H](C(=O)N[C@@H](Cc2c[nH]cn2)C(=O)N[C@@H](CCCNC(=N)N)C(=O)N[C@@H](CCCNC(=N)N)C(=O)N[C@@H](C)C(=O)N[C@@H](CC(N)=O)C(N)=O)NC(=O)[C@H](C(C)C)NC(=O)[C@H](CCCNC(=N)N)NC(=O)[C@H](C(C)C)NC(=O)CNC(=O)[C@H](CC(N)=O)NC(=O)[C@H](CCCNC(=N)N)NC(=O)[C@H](Cc2ccc(O)cc2)NC(=O)[C@H](C(C)C)NC1=O)C(C)C)C(C)C | bactericidal activity | ATCC 25922 | 24 h |  | EC50 | 2550 nM |
| CC(C)C[C@H](NC(=O)[C@H](CCN)NC(=O)[C@H](CCN)NC(=O)[C@@H](Cc1ccccc1)NC(=O)[C@H](CC(C)C)NC(=O)[C@H](CCN)NC(=O)[C@H](CCN)NC(=O)[C@@H](CCN)NC(=O)[C@@H](N)CSCCOC(=O)c1ccc(C(C)(C)C)cc1)C(N)=O |  | ATCC 10546 | 24 h, 37 °C |  | MBC | 8 µM |
| CCOC(=O)COc1ccc2ccc3oc([N+](=O)[O-])cc3c2c1 | REMA |  |  |  | MIC90 | > 32 µg/mL |
| C[C@@H](O)[C@H]1C(=O)N2C(C(=O)[O-])=C(SC3Cn4cnc[n+]4C3)[C@H](C)[C@H]12 (stereo partly shown) | checkerboard | carbapenem-resistant | concentration not given, with: anionic gold nanoparticle 8 µg/mL | relative to: MIC alone over combination | MIC fold reduction | 4 fold |
| N#Cc1ccc2c(ccc3oc([N+](=O)[O-])cc32)c1 | REMA |  |  |  | MIC90 | > 32 µg/mL |
| C[C@@H](O)[C@H]1C(=O)N2C(C(=O)O)=C(S[C@@H]3CN[C@H](C(=O)N(C)C)C3)[C@H](C)[C@H]12 | checkerboard | carbapenem-resistant | concentration not given, with: anionic gold nanoparticle 8 µg/mL | relative to: MIC alone over combination | MIC fold reduction | 32 fold |
| CC[C@H](C)[C@H](NC(=O)[C@H](Cc1ccc(O)cc1)NC(=O)[C@@H](NC(=O)[C@H](Cc1ccc(O)cc1)NC(=O)[C@@H]1CCCN1C(=O)[C@@H](NC(=O)[C@H](C)N)[C@@H](C)CC)[C@@H](C)CC)C(=O)N[C@@H](Cc1c[nH]c2ccccc12)C(=O)N[C@@H](CCCNC(=N)N)C(=O)N[C@@H](CC(C)C)C(=O)N[C@@H](CC(C)C)C(=O)N[C@@H](CCCNC(=N)N)C(=O)N[C@@H](CCCCN)C(=O)NCC(=O)O |  | D31 | 18 h, 37 °C |  | MBC | 3.75 µM |
| COc1c([N+](=O)[O-])oc2ccc3ccccc3c12 | REMA |  |  |  | MIC90 | > 32 µg/mL |
| CNC(C)C1CCC(N)C(OC2C(N)CC(N)C(OC3OCC(C)(O)C(NC)C3O)C2O)O1 (stereo not shown) | broth microdilution |  |  |  | MLC | 4 ± 1 µg/mL (≈ 8.38 µM) |
